Results pooled from the literature.
± marks the error that the study gave.

For NC1(C(=O)N[C@@H](CCO)c2ccc(Cl)cc2)CCN(c2nc[nH]c3nccc2-3)CC1, “incidence of Blindness” read 14.3% (metastatic CRPC patients; 400 mg b.i.d., any grade, treatment-related, added: enzalutamide 160 mg daily).
Under “QTcI change from baseline”, COc1c(N2C[C@@H]3CCCN[C@@H]3C2)c(F)cc2c(=O)c(C(=O)O)cn(C3CC3)c12 is recorded as 9.6 ms (healthy volunteers; oral, 400 mg single dose, day 5, 4.00 h).
The dose-normalized AUC(0-t) of COc1cc2c3c(n(CCCNCCO)c(=O)c2cc1OC)-c1nc2c(cc1C3=O)OCO2 is reported as 151 ng·h/mL (male CD1 mouse, plasma; intravenous, 1 mg/kg).
Under “share of patients with dose reduction”, C[C@@H](Nc1cc(F)cc(F)c1)c1cc(C(=O)N(C)C)cc2c(=O)cc(N3CCOCC3)oc12 is recorded as 0% (patients with advanced solid tumours; oral, 240 mg twice daily, monotherapy dose-finding, 2:5 schedule).
For N#Cc1ccc2c(c1)[C@H]1CCCN(C(=O)c3ccc4[nH]cnc4c3)[C@H]1C2, the androstenedione level was 9.6 nmol/L (human, male; 360 mg, day 15).
For O=C(Nc1nc2cccc(-c3ccc(CN4CCS(=O)(=O)CC4)cc3)n2n1)C1CC1, “treatment-emergent adverse events” read 0% (measured: paraesthesia; human rheumatoid arthritis patients; oral, 200 mg once daily, 4 weeks, regardless of relatedness).
C=CC(=O)NC1CCN(c2ncc3ncnc(Nc4ccc(Oc5ccc6c(c5)ncn6C)c(C)c4)c3n2)CC1 — result for “adverse events incidence”: 0% (measured: skin disorders (SOC); human male; oral, dose not given, CTCAE on-treatment AEs).
With COc1ccc(C#N)cc1-c1c[nH]c2ncc(-c3cncc(C(=O)N(C)C)c3)cc12 the reactivity half-life was over 24 h (HPLC; acetonitrile/water/DMSO; 50 µM, 37 °C, DIPEA 20 eq, added: N-α-acetyl-lysine).
CCCC[C@H](NC(=O)[C@@H](NC(=O)[C@H](CCC(=O)O)NC(=O)CNC(=O)[C@@H](NC(=O)[C@H](Cc1ccccc1)NC(=O)[C@H](C)NC(=O)[C@H](CCCCN)NC(=O)CNC(=O)[C@H](Cc1ccccc1)NC(=O)[C@H](CCCCN)NC(=O)[C@H](CCCCN)NC(=O)[C@]1(C)CCCC=CCCC[C@](C)(NC(=O)[C@H](CCCCN)NC(=O)CNC(=O)[C@@H](NC(=O)CN)[C@@H](C)CC)C(=O)N[C@@H](CC(C)C)C(=O)N[C@@H](Cc2c[nH]cn2)C(=O)N[C@@H](CO)C(=O)N1)C(C)C)[C@@H](C)CC)C(=O)N[C@@H](CC(N)=O)C(=O)N[C@@H](CO)C(N)=O has a retention time of 13.4 min (HPLC C18 column).
Cc1cc(-c2nccc3c2ccn3CC(=O)Nc2ccc(-c3cnccn3)cn2)ccn1: “subjects with Headache adverse event” 0% (human; 5 mg once daily, multiple ascending dose).
The plasma concentration of CCOCc1nc(O)c(-c2nnc(Cc3ccc(Cl)cn3)o2)c(O)c1-c1c(OC)cccc1OC is reported as 850 nM (rat, anaesthetised, cannulated, plasma; intravenous infusion, 10 µg/kg/min, 5 min).
The tissue uptake of O=C(CCCCCCC(=O)Nc1ccc(CC[18F])cc1)NO is reported as 5.7 ± 1.2 %ID/g (athymic nu/nu male mice, LNCaP xenograft, kidney; intravenous, 2 h).
FC(F)(F)c1ccc(CNc2ccc(Cc3c[nH]c4ncc(Cl)cc34)cn2)cn1 — result for “adverse event incidence”: 4% (measured: Vomiting; patients with advanced solid tumours; oral, dose not given, grade 3 and 4, possibly related to drug).
Under “AUC(0-last) geometric mean”, CCOc1c([C@H](C)n2nc(C)c3c(N)ncnc32)cc(Cl)c(F)c1[C@@H]1CNC(=O)C1 is recorded as 2.99 µM·h (patients, monotherapy; oral, 10 mg once daily, cycle 1 day 1).
With O=C(c1cccnc1-c1ccncc1)N1CCC(O)(Cc2ccccc2)CC1 the Cmax was 9280 ng/mL (healthy Japanese adults, plasma; oral, 1200 mg single dose, geometric mean, PK/QTc set).
For CN1C(=O)[C@@H](NC(=O)c2nnc(Cc3ccccc3)[nH]2)COc2cccnc21, “participants with any AE of special interest” read 0% (phase I multiple ascending dose; human, male and female; oral, 600 mg, 14 days).
C[C@H]1CN(C(=O)CC#N)[C@]12CCN(c1ncnc3[nH]ccc13)C2: “fraction excreted unchanged” 79.6% (healthy Japanese men, urine; oral, 5 mg, single dose; reference: dose).

Some of these lines once more:
Cc1cc(-c2nccc3c2ccn3CC(=O)Nc2ccc(-c3cnccn3)cn2)ccn1: “subjects with Headache adverse event” 0% (human; 5 mg once daily, multiple ascending dose).
The plasma concentration of CCOCc1nc(O)c(-c2nnc(Cc3ccc(Cl)cn3)o2)c(O)c1-c1c(OC)cccc1OC is reported as 850 nM (rat, anaesthetised, cannulated, plasma; intravenous infusion, 10 µg/kg/min, 5 min).
